Experimental data pooled from the literature.
Each numbered part is a random draw from the data of one study; scales do not carry over between parts.

Block 1
Target: RNA binding protein fox-1 homolog 2, RRM domain, GST-SBP tag (RBFOX2, Homo sapiens, UniProt O43251-10, residues 100-194)
Technique: RNA Bind-n-Seq
Molecule type: RNA
Matrix: in vitro
Concentration: 365 nM
Notes: natural RNA segment, single round, ends assumed
Relative to: no-protein control
Direction: higher = stronger binding
Measurement: RBNS enrichment (R)
Shared flanks, not repeated: GGGAGUUCUACAGUCCGACGAUC … UGGAAUUCUCGGGUGCCAA
Target sequence (chain): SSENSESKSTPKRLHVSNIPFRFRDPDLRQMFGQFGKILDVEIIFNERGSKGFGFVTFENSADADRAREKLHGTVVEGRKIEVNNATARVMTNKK
GACAGAUCGCUUGCAUAUUUUUAAAAAUUUCUACUACAGAGACAUUCCAAUAAACUCGUUAAGCCUUCGUGUUCUCGUUGUAUUUUACCCCCGCUCCCACCGGCCCCUUC: 0.369
UGCUGAGCUCUUUAAGGAAGGUGGUGCAGAAAGCCGUGCUGUGCUUUCCCUGUGUGGUCUGCCCUCCACCUCUGAGGCCAGCUCAUCAGAUCUGACCUGCCUGAGACAAC: 0.265
CUGUAGGAGUGGGUCUCACAGUUAUCCAGCCCUGUGAUACUUGGGUUGACCCCAUGUUUCAGAUCCUGGAACAAGCAUCCAAGAGUAACAGAACUUUCUGAGCUGGCAAA: 0.257
UUUCAUUUUGUAAAAUCUCAGUUAAUUUUUCUUUAUUGGUAUAUUUGUGUAUGCGAGACAAAUCCUGUAUUGUACAGGAUAUAAAUAGAUGCAUAAAUCCUUAGAUACCU: 0.928
GUAGAAUAUUGAAUAUUUAAAAGGCACACUACAUCUGAUAGUCAAUGUAAAUAUUUUCUUUCCAAGUUGUAAGUUUUCAUAUCAUGUGUUGUAAAGUUUUCCUAAACGAG: 0.573
CUAUAGCCAACACAAAGCAAAUGCCAGAGGUAUUGGAUGAUGCCAUAUUUGAACUGCCAUCUAUUAGCAUAUUCAUCACACUACAUAGACAUAGUUUUACUGCCCCCUUU: 0.538
AAAAGUGUGCUAGAACUUUUUAAAAACACAUAAUGUCUUGAAGUUAGAAUAAACACUAAGAAAUGACAUGUCUGGUGUUACUGCACAAAAGCUUAUCUGGUUUGUGACUG: 0.628
CAGAGGAAGAAAAACUAAAGAGUCGUUUGUUCAGAGACCUGACCUUAUAAAGUUGGGGGAGCAGCUGGGUUUGUACCUAUAACCUCAGCCUUUGAGAGAGAUUGAGAAAG: 0.407
CCUAAGGUGCUCAGCGUCUCAAGAGGACUGGGGUCGAGGCUAAUCUCCAAGCUCCAUCUGCAAAGGAAGGAGGUCUUCCUAGCUGAGCCGACUGUACAUCUGCAGUCCCU: 0.261
CACACUUGGCCCUCUUCCUCUCCAAAGCGCCAGAACCUCCUUCUCUUUGGAGAAUGGGGAGGCCUCUUGGAGACACAGAGGGUUUCACCUUGGAUGACCUCUAGAGAAAU: 0.226
UUUAAUAUUUCUCCAAAUGAGGUUUAAAUAUACUAUAGCUACUGUUUUUAAUUUAAAGGUUAAACUUGAAGAAAGUCUUUAUUCACGGUGCCAAAAUUCAUUUUUCUAAC: 0.675
ACAUGACUCCAGAAGUCUCUGACCCCAUUUGUUUUUAAUGGCAUCAGCCAAUGAGUUAUCACCCUUUUCCUCCUCUUUUCUCUUUAAUCUUCUGUUGAUUUACACCUUUG: 0.654

Block 2
Target: Transcriptional repressor CTCF (CTCF, Homo sapiens, UniProt P49711, residues 1-727, full length assumed)
Technique: protein-binding microarray
Molecule type: double-stranded DNA, one strand shown
Matrix: in vitro
Concentration: not given
Notes: k-mer, scored over probes, only values ≥0.25
Direction: higher = stronger binding
Measurement: E-score
Residues (chain): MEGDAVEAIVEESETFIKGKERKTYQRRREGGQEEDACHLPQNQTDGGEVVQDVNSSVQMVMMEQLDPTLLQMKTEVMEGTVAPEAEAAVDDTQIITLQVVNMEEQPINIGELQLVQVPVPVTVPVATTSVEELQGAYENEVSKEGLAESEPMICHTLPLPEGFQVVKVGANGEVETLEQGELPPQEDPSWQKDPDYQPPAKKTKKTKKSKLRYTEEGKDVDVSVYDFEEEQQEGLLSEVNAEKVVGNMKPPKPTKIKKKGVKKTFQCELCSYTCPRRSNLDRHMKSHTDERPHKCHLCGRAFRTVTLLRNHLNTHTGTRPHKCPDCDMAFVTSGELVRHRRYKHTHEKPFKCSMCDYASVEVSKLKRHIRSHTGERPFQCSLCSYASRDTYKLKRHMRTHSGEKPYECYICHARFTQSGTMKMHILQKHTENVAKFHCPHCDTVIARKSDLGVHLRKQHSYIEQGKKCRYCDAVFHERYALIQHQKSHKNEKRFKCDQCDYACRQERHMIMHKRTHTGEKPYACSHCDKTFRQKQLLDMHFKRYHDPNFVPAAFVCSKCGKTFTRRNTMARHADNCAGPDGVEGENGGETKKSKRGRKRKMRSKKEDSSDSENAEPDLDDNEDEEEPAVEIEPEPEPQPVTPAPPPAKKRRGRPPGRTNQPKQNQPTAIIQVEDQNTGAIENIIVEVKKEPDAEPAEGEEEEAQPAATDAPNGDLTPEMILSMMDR
AACGTAAT: 0.274
CAATATTG: 0.29
AATTACGA: 0.267
GCGCGTAA: 0.391
TGCGCCAA: 0.344
CGCATCTA: 0.28
ATGTCATA: 0.25
AAATGCAA: 0.273
ATAGGGGG: 0.342
GTGGCGCA: 0.478
CATGTATA: 0.298
AATGTTAC: 0.254
TGCGTAAA: 0.267
AATGTGAA: 0.288
GTCATACA: 0.264
ACCTATAT: 0.278
GTTTAATA: 0.29
GGTTATAA: 0.277
AGTACAAT: 0.265
AATAAATA: 0.375

Block 3
Target: Interferon regulatory factor 5, full length, phosphomimetic (IRF5, Homo sapiens, UniProt Q13568-2, residues 1-514, K96S/S451D/S453D/S456D/S462D)
Technique: protein-binding microarray
Molecule type: double-stranded DNA, one strand shown
Matrix: in vitro
Concentration: 250 nM
Notes: 60-bp whole probe
With: salmon DNA 0.4 mg/ml
Relative to: random background probes
Direction: higher = stronger binding
Measurement: log fluorescence
Shared flanks, not repeated: GCCTAGCAC … GTCTTGATTCGCTTGACGCTGCTG
TTAGGTTTCGACTATCTGTTAGTGCTA: 7.92 z-score
GACGATTTCAGTTCAGAGACGTGCTAG: 1.34 z-score
TCAATCGTCCCTTTGAGACTGTGCTAG: -0.246 z-score
GAAGATGTCAAACTCACTCAGTGCTAG: -0.282 z-score
TTAGGTATCCTTCTCCTTGAGTGCTAG: 0.456 z-score
TTAGATTTCAGACCGGATTAGTGCTAG: 0.161 z-score
TTAGGTATCCGACTGGGTTAGTGCTAG: -0.143 z-score
GACGGTTTCCTACTGCTGTCGTGCTAG: 0.457 z-score
TCAACTTTAACTTATTCTACTGTGCTA: 0.876 z-score
GGCTGTTTGGTCCTGAACCTGTGCTAG: -0.478 z-score
TTAGGTAGCCTTTTCCTTTAGTGCTAG: -0.0819 z-score
TGAGGTCTCGGTCTCGGTTAGTGCTAG: 0.418 z-score
ATTAGAGGATAACTTACAGAGTGCTAG: -0.171 z-score
TTAGGTCTCTGTTTCGGTTAGTGCTAG: 8.28 z-score
GACGACCTGGGGACTGGAGACGTGCTA: -0.45 z-score
GACGGTATCGGGACTGGGGATGTGCTA: 1.3 z-score
TTAGAGCTCAGTCTCGATTAGTGCTAG: 0.23 z-score
TTAGGTATAGGGACTGGGTTAGTGCTA: -0.325 z-score
GACGGACTGGGGCTTCGGGACGTGCTA: -0.701 z-score
TCATCTACAGGGTTTCACACTGTGCTA: 0.526 z-score
TTAGATCTCAGAGTGGATTAGTGCTAG: -0.056 z-score
TTAGATTTCAGTTTTGATTAGTGCTAG: 3.48 z-score
TCAAATATATGTATATAACTGTGCTAG: 0.679 z-score
CTTCTTTTGCTAATTTTTTTGTGCTAG: 1.92 z-score
TTAGGTATGCTTTTCCTTTAGTGCTAG: 0.249 z-score

Block 4
Target: Ras GTPase-activating protein-binding protein 1, C-terminal RGG region (G3BP1, Homo sapiens, UniProt Q13283)
Chain of UniProt Q13283 (whole entry, looked up): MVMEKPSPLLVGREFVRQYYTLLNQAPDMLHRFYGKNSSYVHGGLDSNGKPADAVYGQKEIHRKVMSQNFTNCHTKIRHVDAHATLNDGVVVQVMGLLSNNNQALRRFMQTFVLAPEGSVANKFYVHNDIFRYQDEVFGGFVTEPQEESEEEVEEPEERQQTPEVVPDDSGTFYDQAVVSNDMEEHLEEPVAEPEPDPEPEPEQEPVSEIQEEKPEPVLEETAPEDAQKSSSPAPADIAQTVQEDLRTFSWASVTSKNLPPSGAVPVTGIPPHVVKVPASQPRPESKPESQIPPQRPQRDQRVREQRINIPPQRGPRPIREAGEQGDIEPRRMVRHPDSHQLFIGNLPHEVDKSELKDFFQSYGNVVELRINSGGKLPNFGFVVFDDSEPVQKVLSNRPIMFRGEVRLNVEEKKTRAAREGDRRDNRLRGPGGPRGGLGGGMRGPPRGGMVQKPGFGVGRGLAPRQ
Technique: RNA Bind-n-Seq
Molecule type: RNA
Matrix: in vitro
Concentration: 1 µM
Notes: whole 134-nt RNA, ends assumed
With: 150 mM KCl
Relative to: input library
Direction: higher = stronger binding
Measurement: log2 enrichment
Shared flanks, not repeated: GGGAGUUCUACAGUCCGACGAUC … UGGAAUUCUCGGGUGUCAAGG
UCAAGUCCUGUGCUACACAUCGUAUGUACCGAAUCGGGGAAGGGAAGGGGAAGGGAAAGUAUUAUGUUACGCCGUUCGGAUCUGCACUUC: 2.05
CCUCAAGUCCUGUGCUACACAUCGUAUGUACCGAAUCGGUUGGUUGGGGUUGGAAAGUAUUAUGUUACGCCGUUCGGAUCUGCACUUCCA: -0.919
GUCCUGUGCUACACAUCGUAUGUACCGAAUCGGGGAAAGGGGAAAGGGGAAAAAGGGGAAAGUAUUAUGUUACGCCGUUCGGAUCUGCAC: 2.64
AGUCCUGUGCUACACAUCGUAUGUACCGAAUCGGGUGGGAAAAAGGGAAAAAAAGGGAAAGUAUUAUGUUACGCCGUUCGGAUCUGCACU: -0.208
AGUCCUGUGCUACACAUCGUAUGUACCGAAUCGGGGUUUUUGGUUUUUGGUUUUUGGAAAGUAUUAUGUUACGCCGUUCGGAUCUGCACU: -1.66
UGGCCCUGGUGGCAUGCGGGGAGGAAGAGGUGGCCUCAUGGAUCGUGGUGGCCCCGGUGGAAUGUUCAGAGGUGGCCGUGGUGGAGACAG: 0.729
UCAUGUAUAGACAACGCCAUUAUUGACGAGAUCACUCCCAAGCGGAUUGGAGAUUGUCCCAAUAUUUAGACCUAUAGCAAGGCCUUGGGA: -0.477
AGGUCAUGGAUCAAAAAGAACAUAAAUUGAAUGGGAAGGUGAUUGAUCCUAAAAGGGCCAAAGCCAUGAAAACAAAAGAGCCGGUUAAAA: -2.16
UGGCCCUGGUGGCAUGCGGGGAGGAAGAGGUGGCCUCAUGGAUCGUGGUGGUCCCGGUGGAAUGUUCAUAGGUGGCCGUGGUGGAGACAG: 3.2
ACCAUGCAGGUGGGCAUCUUUGGGAAGGGGGGCAAGGGGGGGAUAGGGAGGGGGGUAACACUUUGGGAACAGGUGGUCCCAGGUCGUUUC: -1.17
UAACUUUAGAGGAGGAUCUGAUGGAUAUGGCAGUGGACGUGGAUUUGGGGAUGGCUAUAAUGGGUAUGGAGGAGGACCUGGAGGUGGCCA: -0.63
UGUUCACAUUUUAAGGAUGACAAGUCCACUAUAUGUAACACGUAAGAAUGCUAUCCUGGCAGUAGACACAGGGCCAGAAUAAACUGGCAA: -0.987
CACAGACAACACGCACCCACACAGACAGAGAGGGAAGGGGUUGGGAUGGGGACAGGGUGCACAGCAGGGCGGGGUAGGACCCCAGCCCCU: -0.0816
UCCUGUGCUACACAUCGUAUGUACCGAAUCAAAUUUUUUUAAACCCAAACCCCCCCAAAAAAGUAUUAUGUUACGCCGUUCGGAUCUGCA: -0.807
